Published values pooled from the literature.
Parts stem from different laboratories: compare values within a part only. Substitutions count along the parent as printed.

Study 1
Target: RNA binding protein fox-1 homolog 2, RRM domain, GST-SBP tag (RBFOX2, Homo sapiens, UniProt O43251-10, residues 100-194)
Technique: RNA Bind-n-Seq
Molecule type: RNA
Matrix: in vitro
Concentration: 365 nM
Setting: natural RNA segment, single round, ends assumed
Baseline: no-protein control
Direction: higher = stronger binding
Construct (chain): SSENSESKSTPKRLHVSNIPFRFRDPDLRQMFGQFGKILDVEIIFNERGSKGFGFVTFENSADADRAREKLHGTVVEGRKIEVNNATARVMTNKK
Sequence	RBNS enrichment (R)
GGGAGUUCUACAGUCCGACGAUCAAUUCUUUCCCUAAAAUGUGUGGAAAAGGCCACAUCAUGAGGACUGGUGUGAGUUGGGGUAGGGUCCCCAGAGUCUCAGGAAAGAAGCUAGAUCACACUGAUUCUCCUGCUGGAAUUCUCGGGUGCCAA	0.537
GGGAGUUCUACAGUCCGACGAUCGGACGCCAAGGCCGCAGGACUGGAGGGCCAGGCCCCGCCACCCCCACGGGAGACCCGGGACAGGGCGUCUUCCUAAGUUAUUCAUCUCCUCUCCGCCUGCUGCUCGGGAAUGGAAUUCUCGGGUGCCAA	0.29
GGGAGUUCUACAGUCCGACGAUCUGCCGGAUUCUAGGUUAGCAAAGACUCAAAUGGGUGACUCAUGAAUGAAGGGAGAACAGGCACAGGACUUAAUGAAAAGAGUUUCUUGAACUUAGUUUUCUGAAUGGGGGUGGAAUUCUCGGGUGCCAA	1.06
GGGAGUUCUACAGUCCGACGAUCAGUAAUGCCAUUGCCGCCGUCAAGCAGUCACAGGUCACUGAAGAGGAGGCAGCUGCUGCUCAGACGGAGGGGCCUUCAACACCAUCUAGUUUUCCAGCCCAGGAAGAACAUGGAAUUCUCGGGUGCCAA	0.282
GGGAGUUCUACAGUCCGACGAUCGGCCUGGGAUGGGCCAGGCUGGUCCUGGCUGCCUGUUCCCUGUGCUCUUCAGAAUUACUGUUUUUGUUUCCUUUUACCCCAGCUGCCAUUAAAGCCCAAACCUCUAGCCCUGGAAUUCUCGGGUGCCAA	1.41
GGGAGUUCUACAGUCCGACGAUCGAGUUUAAAAUUAUAGUCUGUCUUUUAUCUUAACAGUUCUGAAUGCUGUCCUCAAAGUAUAUAAUGUUUCUCAUAUGUACCAAGACCAUUUUCACAAUAAACAGAUCUGUUGGAAUUCUCGGGUGCCAA	0.52
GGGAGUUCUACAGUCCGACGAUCUCCUCAGGCGGCUCCUCUGUAAAAUGAGAAAAUGUAUAUUUUUUUACUUCAUGAGAUCUUUGCUGGAAAUUAAUGAGAAGGGUCAGUGUUUGUGACUUAUGGGCUUAUUUUGGAAUUCUCGGGUGCCAA	0.334
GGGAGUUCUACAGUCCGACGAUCUGACUGCUAGCUUCCCACAGAUCCAUGUCUAGAAUACCAGUGUGCUCAGGAAAAGGAAGUCAUUUCGUGUUUGUUUCCCACCAAAGAAGAAUGAAUCCAGGGUUUUUCUAUGGAAUUCUCGGGUGCCAA	0.821
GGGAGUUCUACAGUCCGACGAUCAGUGCCCUAUAAUCCCUCCCCCCUUUCUAAUUCAAUAUCUGGAGUAAGGAAUUCUUGGGUAGGGCACAGGGAUGGGGUUGCCAGCUUCUUCUUUCUUGUGGUGGGGCUCAUGGAAUUCUCGGGUGCCAA	0.534
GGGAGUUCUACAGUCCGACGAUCGAUUCCAUAAUGUGGAGACUAGUAACUAGAUCCUAAGGCAAAGAGGUGUUUCUCCUUCUGGAUGAUUCAUCCCAAAGCCUUCCCACCCAGGUGUUCUCUGAAAGCUUAGCUGGAAUUCUCGGGUGCCAA	0.243
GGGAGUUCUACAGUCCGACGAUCAAGCCUCAGGUGUCAGAGAGUAAGCUAUAGUGAAAGAUGCCUGGCUCGGCCUGGGGCUAAAAGGACUUUGCACUGCCAUUUCUGAGGCAGGAGUCACAGUUGAGAGCUGGUGGAAUUCUCGGGUGCCAA	0.89
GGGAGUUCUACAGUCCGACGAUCCCAGUGCCGUCCUGCUGAUGUGGUAGGCUAGCAAUAUUUUGGUUAAAAUCAUGUUUGUGACUGUAACCAUUUGUAUGAAUUAUUUUAAAGAAAUAAAAAUCCUGGAAAGAUGGAAUUCUCGGGUGCCAA	0.744

Study 2
Target: RING finger protein unkempt homolog, zinc fingers 1-6, SBP tag (UNK, Homo sapiens, UniProt Q9C0B0, residues 30-357)
Sequence of UniProt Q9C0B0 (30-357, looked up): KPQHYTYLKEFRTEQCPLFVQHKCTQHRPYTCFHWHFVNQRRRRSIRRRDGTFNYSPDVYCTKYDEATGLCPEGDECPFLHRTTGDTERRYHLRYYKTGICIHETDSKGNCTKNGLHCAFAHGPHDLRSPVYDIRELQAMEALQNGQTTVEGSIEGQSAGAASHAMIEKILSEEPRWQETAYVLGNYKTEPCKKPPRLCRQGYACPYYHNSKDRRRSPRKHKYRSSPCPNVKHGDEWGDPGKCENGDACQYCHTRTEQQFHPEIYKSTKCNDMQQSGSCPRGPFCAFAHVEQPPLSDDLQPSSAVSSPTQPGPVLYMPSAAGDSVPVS
Technique: RNA Bind-n-Seq
Molecule type: RNA
Matrix: in vitro
Concentration: 100 nM
Setting: RNA with constant flanks, vertebrate orthologous sites, ends assumed
Baseline: input RNA pool
Direction: higher = stronger binding
Sequence	bound/input enrichment
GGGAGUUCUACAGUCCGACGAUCCUGUUGUGGAAAAUAGUCUACCCAGAGAAGUAUCACCCUAUAAAUAUUAAUCAAAUAAUUUACCUAGCAUCUUCUUAGGAAUCGAAUUACAUGUCAAGCAUUUAAAGUGAGUUUGAGAUGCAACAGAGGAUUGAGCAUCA	1 ratio
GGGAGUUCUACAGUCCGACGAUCCUUCCUCCAACUUCAGUUUUUCAGGUUGUAGCUGAUCCAUCUUUUCUUCUUCCCUUCCUCUCACUGUUCCUUUCCUUUCUGUCUGCCCAACUUCAGACACAUGAGUUCAUCCCCUUGCAUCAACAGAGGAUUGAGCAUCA	1.1 ratio
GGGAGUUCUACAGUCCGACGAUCGAUAUCUUCUGCAUGGAAUAUUGAAGACUUCCAUGCUUACGUUAAAUGCUAAAAUUAAGCUGCAGUACUUUAUUUCUGCAGUAUUGUUUGCUUGUGUUUAAAGUCAGACAGGAUAAAUGUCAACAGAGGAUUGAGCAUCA	0.332 ratio
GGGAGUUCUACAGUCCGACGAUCCAUUUUUACAAUCUAAAACUGGUAUUUUCAAACAAUAGGAACCUUUUUUUUUUUUUUUUACAGUUUAUCUGGUUUCUACAUGGAAGACUAAAUAAACCCAUGCUUGUUGCUAAAUGGGGUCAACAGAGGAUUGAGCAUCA	0.515 ratio
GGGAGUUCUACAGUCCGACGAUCAAGAUGGUGGUUGUACAUUAUUUCAUUUAGAAAAUAUAAACUUUAAUUUUGUUUUGAAGUUAGGUGUUAAACUGGAAUAGCUAUCAUACCCCGGAUAAUGGGGGCAGUUGUGCCCUUCCCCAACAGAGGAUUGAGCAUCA	0.778 ratio
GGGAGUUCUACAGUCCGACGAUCGGGACGCUUUGAUGUAAAAAUUGAAGUUAAGAGCUGAUCACAAGCACAAAUCUUUCCCACUAGCCAUUGAAAACGUUUAAAGAUACAAAAACAAAAAAACCUACUAGUCUUGAACAAACUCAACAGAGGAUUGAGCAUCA	1.16 ratio
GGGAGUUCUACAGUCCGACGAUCAUUAAAUAUGUAUCAGAUGCUGGAUGUAACAUUGAACCAUCAUUUGUAAUAGAUGUUAAUUUGUUAUAAUUAAGCUACAAAUAGGUUUCCUUAAACCAGAGAUACACUGCCCUUGUCUGACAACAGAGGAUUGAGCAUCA	0.245 ratio
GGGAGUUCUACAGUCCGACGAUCAUUCAAACCUGUGAUACCAUGGCCUCACGUGGAGGGCGUAGAAGUGGACUUAGAGUCUAUUAGAAGGAAAAACAAGGCCAGAAAUGACCAGGAACGCCGUGCAGGAGGGGACCCCCAGAACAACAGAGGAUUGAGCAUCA	0.526 ratio
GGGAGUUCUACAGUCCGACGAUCGGUUGAUGUUCUGAAGAACCACUUGGUAAAAGAAGGUCGAGUAGAUGAAGAAAUUGCGCUUAGAAUUAUCAAUGAGGGUGCUGCCAUCCUUCGGAGAGAGAAAACCAUGAUAGAAGUAGACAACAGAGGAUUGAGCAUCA	0.585 ratio
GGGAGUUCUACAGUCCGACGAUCCUAUAUGGGCCUCGCAGAGUUGAAAUAAUGGAAGAGGAAAGUGAACAGUAAUCUUCAUUUUAGUAUUUAUGCUUAGGUGUGAAAUAAAUGUUAUUUGUUGAUCAUUUCUAUAAUCCAGAGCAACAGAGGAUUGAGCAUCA	0.497 ratio
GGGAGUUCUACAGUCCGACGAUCUACCUUUUGUAGGCCAAAUACCUUCCUUCCACUGCUCUGCCAACUGGAAGCACAGACAACUAGAAUUUCAUUUAUUUUGUUUAAAAAAAUCGAUUUCUUGUAACAUCCAAUAGGAAUGCUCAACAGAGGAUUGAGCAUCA	0.786 ratio

Study 3
Target: ABI1, truncated, D143A, DHFR fusion (Arabidopsis thaliana)
Technique: DHFR PCA, deep sequencing
Matrix: yeast
Setting: methotrexate growth selection, single substitutions
Added: (+)-ABA 4.8 µM
Baseline: wild-type fitted maximum
Direction: higher = stronger binding
Starting sequence: PYL1, truncated, DHFR fusion (Arabidopsis thaliana); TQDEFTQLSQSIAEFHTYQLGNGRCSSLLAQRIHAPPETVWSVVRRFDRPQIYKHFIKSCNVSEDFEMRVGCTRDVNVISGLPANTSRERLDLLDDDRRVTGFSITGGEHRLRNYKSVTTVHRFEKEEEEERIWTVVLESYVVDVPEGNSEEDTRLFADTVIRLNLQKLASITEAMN
Variant	relative binding score [%]
N77A	79.1
L169R	-10.3
K54V	-5.35
Q31H	44.1
L156M	76.7
D153I	-6.05
G102H	-9.67
P83T	10.3
V143G	4.89
A170R	74.8
N22R	75.5
I52M	66.5
H16D	-15.1
R132L	72.3
H122T	5.72
V70L	35.3
A158F	8.27
I33K	-14.7
I52W	44.2
E131G	89.2

Study 4
Target: Ras GTPase-activating protein-binding protein 1, full length (G3BP1, Homo sapiens, UniProt Q13283)
Sequence of UniProt Q13283 (whole entry, looked up): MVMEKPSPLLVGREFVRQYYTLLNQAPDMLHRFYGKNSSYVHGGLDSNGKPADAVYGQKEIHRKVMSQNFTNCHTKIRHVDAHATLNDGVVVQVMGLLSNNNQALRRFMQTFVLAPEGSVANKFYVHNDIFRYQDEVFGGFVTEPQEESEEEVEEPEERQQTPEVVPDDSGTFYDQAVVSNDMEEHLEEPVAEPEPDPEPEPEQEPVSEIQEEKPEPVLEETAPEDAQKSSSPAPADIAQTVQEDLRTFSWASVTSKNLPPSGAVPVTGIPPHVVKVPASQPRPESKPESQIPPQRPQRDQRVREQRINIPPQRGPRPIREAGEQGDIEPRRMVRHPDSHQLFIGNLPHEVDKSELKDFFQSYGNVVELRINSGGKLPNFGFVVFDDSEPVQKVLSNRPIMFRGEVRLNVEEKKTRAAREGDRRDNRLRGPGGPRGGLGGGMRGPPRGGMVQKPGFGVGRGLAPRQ
Technique: RNA Bind-n-Seq
Molecule type: RNA
Matrix: in vitro
Concentration: 200 nM
Setting: whole 134-nt RNA, ends assumed
Added: 150 mM LiCl
Baseline: input library
Direction: higher = stronger binding
Each molecule: 7-deaza-guanosine replaces G
Sequence	log2 enrichment
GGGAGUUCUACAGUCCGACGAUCUCUGUUUCCUCUGCCAGUGGCAAUGCAACACCUAACACUCCUGGGGAUGAGUCUCCCUGUGGUAUUAUUAUUCCUCAUGAAAACUCACCAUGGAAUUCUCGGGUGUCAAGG	0.249
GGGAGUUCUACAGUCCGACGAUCAAGUCCUGUGCUACACAUCGUAUGUACCGAAUCGGGUGGGUUUUUUUGGGAAAGGGAAAGUAUUAUGUUACGCCGUUCGGAUCUGCACUUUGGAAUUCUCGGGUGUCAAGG	0.369
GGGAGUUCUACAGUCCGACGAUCCUCAAGUCCUGUGCUACACAUCGUAUGUACCGAAUCGGGAAGGGAAGGGGAAGGAAAGUAUUAUGUUACGCCGUUCGGAUCUGCACUUCCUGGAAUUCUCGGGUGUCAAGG	-0.0988
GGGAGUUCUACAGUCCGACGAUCGUCCUGUGCUACACAUCGUAUGUACCGAAUCGGGCCCCCGGCCCCCGGGGCCCCCGGGAAAGUAUUAUGUUACGCCGUUCGGAUCUGCACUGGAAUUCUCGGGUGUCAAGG	-1.63
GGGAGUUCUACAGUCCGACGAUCAGUCCUGUGCUACACAUCGUAUGUACCGAAUCGGGUUUGGGUUUUUUUGGGUUUGGGAAAGUAUUAUGUUACGCCGUUCGGAUCUGCACUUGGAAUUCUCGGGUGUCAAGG	-0.531
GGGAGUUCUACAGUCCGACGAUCUCUCCACCUGCUGAGCUCCCCAGUUUGAGGCGGAGCACACGCCAAAAGACCACGGGCUCCUGUGCUAGUACCAGGUAAUUUGUUUUUUUUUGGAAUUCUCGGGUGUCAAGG	0.871
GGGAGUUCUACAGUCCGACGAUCUGGGAGGUGGAUUUUGUUUAUUUUUUUAGCUCAUUUCCAGGGGUGGGAAUUUUUUUUUAAUAUGUGUCAUGAAUAAAGUUGUUUUUCAAAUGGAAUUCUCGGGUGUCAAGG	0.0988
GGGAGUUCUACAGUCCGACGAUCAGUCCUGUGCUACACAUCGUAUGUACCGAAUCGGGGUUUUUGGGUUUUUGGUUUUUGGAAAGUAUUAUGUUACGCCGUUCGGAUCUGCACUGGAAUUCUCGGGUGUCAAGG	-0.325
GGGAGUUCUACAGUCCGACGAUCUUGCAGAUGAGCUUAUGGGGGGCAAUCUUAAAAAGUCCACAGCAGAUGCAUCCGGCUCGAGGGGCCAUCAGCUUUGAAUAAAUGCUUGUUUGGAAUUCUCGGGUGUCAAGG	-1.37
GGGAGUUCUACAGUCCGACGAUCCCUCAAGUCCUGUGCUACACAUCGUAUGUACCGAAUCGGGUGGUGGGUGGGGAAAGUAUUAUGUUACGCCGUUCGGAUCUGCACUUCCAGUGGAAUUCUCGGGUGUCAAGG	-0.0101
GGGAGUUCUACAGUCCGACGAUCCCUGUGCUACACAUCGUAUGUACCGAAUCGGGGUGGGGAAAAAAAGGGGUUUUUUUGGGGAAAGUAUUAUGUUACGCCGUUCGGAUCUGCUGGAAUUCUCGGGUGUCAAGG	-0.0574

For quick reference, copied from above (study 1):
Sequence	RBNS enrichment (R)
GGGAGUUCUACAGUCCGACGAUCAGUAAUGCCAUUGCCGCCGUCAAGCAGUCACAGGUCACUGAAGAGGAGGCAGCUGCUGCUCAGACGGAGGGGCCUUCAACACCAUCUAGUUUUCCAGCCCAGGAAGAACAUGGAAUUCUCGGGUGCCAA	0.282
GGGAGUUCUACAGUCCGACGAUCGGACGCCAAGGCCGCAGGACUGGAGGGCCAGGCCCCGCCACCCCCACGGGAGACCCGGGACAGGGCGUCUUCCUAAGUUAUUCAUCUCCUCUCCGCCUGCUGCUCGGGAAUGGAAUUCUCGGGUGCCAA	0.29
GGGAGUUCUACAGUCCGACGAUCGGCCUGGGAUGGGCCAGGCUGGUCCUGGCUGCCUGUUCCCUGUGCUCUUCAGAAUUACUGUUUUUGUUUCCUUUUACCCCAGCUGCCAUUAAAGCCCAAACCUCUAGCCCUGGAAUUCUCGGGUGCCAA	1.41
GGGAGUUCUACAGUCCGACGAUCCCAGUGCCGUCCUGCUGAUGUGGUAGGCUAGCAAUAUUUUGGUUAAAAUCAUGUUUGUGACUGUAACCAUUUGUAUGAAUUAUUUUAAAGAAAUAAAAAUCCUGGAAAGAUGGAAUUCUCGGGUGCCAA	0.744
